Results collected from several papers.
Protocols differ between the studies behind these lines. Numbers after ± are the reported error.

Compound	target or system	assay	system	setting	measurement	result
COc1cc(C(=O)NCCOCCOCCOCCNC(=O)c2ccc([18F])nc2)ccc1NC(=O)C1NC(CC(C)(C)C)C(C#N)(c2ccc(Cl)cc2F)C1c1cccc(Cl)c1F (stereo not drawn)	SJSA-1 tumour model	–	host not given, lung	2 h, tumour-bearing	tracer uptake	0.49 %ID/g
COc1ccc(CNc2nc(N3CCC[C@H]3CO)ncc2C(=O)NNC(=O)c2cnc(N3CCC[C@H]3CO)nc2NCc2ccc(OC)c(Cl)c2)cc1Cl	Salmonella typhimurium	–	TA1535	62.5 µg/plate, 48 h	revertant count	33 ± 2
CC[C@H](C)C(=O)N1CCC(NC(=O)Nc2ccc(OC(F)(F)F)c(F)c2)CC1	–	–	healthy volunteers	oral, 16 mg single dose, 14 (unit not given)	subjects with dyspnoea TEAE	0%
CN(C)CC1CCCCC1(O)c1cccc(O)c1 (stereo not drawn)	Caco-2 TC7	–	–	100 µM, 3 h, pH 6.8 apical, 7.4 basolateral	efflux ratio	2.2
CCC(=O)N(C)c1ccc(Cl)c(Cl)c1	Salmonella typhimurium	Ames test	TA98	5.00 mg/plate, without S9 activation	revertants	0 ± 0.6 revertants/plate
CSCC[C@@H]1NC(=O)[C@@H]2CSSC[C@H](NC(=O)[C@H](CO)NC(=O)[C@H](C)N)C(=O)N[C@@H](CCCNC(=N)N)C(=O)N[C@@H]([C@@H](C)O)C(=O)N3CCC[C@H]3C(=O)N[C@@H](CCCCN)C(=O)N[C@@H](CC(=O)O)C(=O)N[C@H]3CSSC[C@H](NC(=O)[C@H](CCCCN)NC(=O)[C@H](CCCNC(=N)N)NC(=O)[C@H](CC(N)=O)NC1=O)C(=O)N[C@@H](CCCCN)C(=O)N[C@H]1CSSC[C@H](NC(=O)[C@@H]4CCCN4C(=O)[C@H](CC(=O)O)NC(=O)[C@H](C)NC3=O)C(=O)N[C@@H](C)C(=O)N[C@@H](CCCCN)C(=O)N[C@@H](CCC(=O)O)C(=O)N[C@@H]([C@@H](C)O)C(=O)NCC(=O)N[C@@H](CSSC[C@@H](C(N)=O)NC(=O)[C@H](CCCNC(=N)N)NC(=O)[C@H](CC(N)=O)NC1=O)C(=O)N1CCC[C@H]1C(=O)N[C@@H](Cc1ccc(O)cc1)C(=O)NCC(=O)N[C@@H](CCCCN)C(=O)N2	–	–	DA rat pristane-induced arthritis, serum	subcutaneous, 0.1 mg/kg every other day, 21 days	Triglycerides	45.2 mg/dL
COc1ccc(CNc2nc(N3CCC[C@H]3CO)ncc2C(=O)NN)cc1Cl	Salmonella typhimurium	–	TA102	1000 µg/plate, together with: rat liver S9	revertant count	266 ± 12
C[C@@](O)(C(F)F)[C@H](NC(=O)c1ccc(C#CC#CC2CC2)cc1)C(=O)NO	–	–	dog, plasma	intravenous, 10 mg/kg	Cmax	4400 ng/mL
CN[C@](C)(C[18F])C(=O)O	SK-OV-3 tumour model	–	host not given, muscle	30 min, tumour-bearing	tracer uptake	1.5 %ID/g

A few entries again:
Compound	target or system	assay	system	setting	measurement	result
COc1ccc(CNc2nc(N3CCC[C@H]3CO)ncc2C(=O)NNC(=O)c2cnc(N3CCC[C@H]3CO)nc2NCc2ccc(OC)c(Cl)c2)cc1Cl	Salmonella typhimurium	–	TA1535	62.5 µg/plate, 48 h	revertant count	33 ± 2
